Published values pooled from the literature.
A part holds a random share of what one study measured.

Set 1
Target: RNA binding protein fox-1 homolog 2, RRM domain, GST-SBP tag (RBFOX2, Homo sapiens, UniProt O43251-10, residues 100-194)
Technique: RNA Bind-n-Seq
Form: RNA
Matrix: in vitro
Concentration: 365 nM
Setting: natural RNA segment, single round, ends assumed
Reference: no-protein control
Direction: higher = stronger binding
Endpoint: RBNS enrichment (R)
Shared flanks, not repeated: GGGAGUUCUACAGUCCGACGAUC … UGGAAUUCUCGGGUGCCAA
Residues (chain): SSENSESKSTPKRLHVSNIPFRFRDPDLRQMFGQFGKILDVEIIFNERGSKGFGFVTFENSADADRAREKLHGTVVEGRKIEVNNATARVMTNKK
UACCGAGAAGGUCUAAGUAAAACAACGCAAGAUCAGCUCUUUCAGACUCUUAUCCAGAGGGCUCAGAGACAGAGUGUUCUUUCAUUUGUACCGCCCUCUCAGUUCAACUU: 0.217
AAGAGUGGAAUAGCUGUUUUAUUCUUAGGUUGUAGAAUGCCUUGUAGUGCUUCAUAUACUUUGGGGACGUAAUAUAGGAGAUAGUCUUACAUAAGUAAUAUAGAAACAGC: 1.03
ACAUGUUCACACAUGCACACUCACGCUCACACAUGCUGUCACGCAUACACACACGCACAUACUCCUGCACAUGUUCCCAUGCAUGUGUGUGCACUCGGACCGAGCAUCUC: 1.56
UUGUAUUACGAACAUAGGAGUGUCCACAUGUUGUUGUAACUCUGUCCUGCAAGAGCAGGUAUUCCAAUGACACUGGCCUGUGCUUAGCUGAGGAACUUCCAGCUUCAGAU: 0.188
AGUUUUAAAACAUCUUUAGUUUUCAAAGUAAACUGGAUAUGUGGACCUUAAAGUUAUUGAGUUUAAGCUACAAAUUGUAACGUCAUUACUGGACAUGUCAGCAUCAACCC: 0.389
GGGAGUUCCCAGCGCGAAAGGUCUGCUCCCGUUCCUCUGUCUCUGUGAAUAAAUGUGAGUUCGUGCACCCCCGAGUGAGGCUGUGUGUGGGGGAUUGGGUGAGUCAGGAU: 1.15
UGAAACUUUACAUUUGUUGACUUUUUUUCAUUCUCAUUUAAAAUAUAUUGUGCUAUGAUAACCAACCUUCUUCCAAGGAGUGACCAUUACUGCCUACAUUUGCGUUGCUU: 0.674
UAUAAAAAGCAGAUAGAUGGCGCUAUGUUUGAUUCCUACAACGAAAUUAUCACCAGCUUUUUUUCAUUCUUAACUCUUUAAAGGAUUCAAACGCAACUCAAAUCUGUGCU: 1.04
UUUAAGAUUUGUGGAUUUUAUUUUUAUUAAGAACAUAGAUAUAUAAAGUACUGUAGUUUACAGGUAGGCCUUGAAAUAUCUUUUUUAGGAUCUGUUAGGAAUAAGAUUGA: 0.434
UUGAGGAUUUAUGUAUUAGGCCACUUACUUGGUUGGCAAGUGCAGGAACUCAGUUAAAAUGCAGUUGAAGAAUGUCAUCUCCCGAAUUGCUGUCACUUUGGCGAGGGAGU: 0.932
UGGGAUUUUCGAAGCAGACAACACUAUUUCAUCGUGUUUCAAAUUGGAACCUUGAGGCUAGUUAGUAUCACACUCAGGCCACACUCAGCACUUGCCCACUCUUGUUUACU: 0.269
UUUAAAGAAGAGAAAAACACCUUGAGCCUUAAAACGGUGCUGCUGGGAAACAUUUGCACUCUUUUAGUGCAUUUCCUCCUGCCUUUGCUUGUUCACUGCAGUCUUAAGAA: 0.708

Set 2
Target: Ras GTPase-activating protein-binding protein 1, full length (G3BP1, Homo sapiens, UniProt Q13283)
Sequence of UniProt Q13283 (whole entry, looked up): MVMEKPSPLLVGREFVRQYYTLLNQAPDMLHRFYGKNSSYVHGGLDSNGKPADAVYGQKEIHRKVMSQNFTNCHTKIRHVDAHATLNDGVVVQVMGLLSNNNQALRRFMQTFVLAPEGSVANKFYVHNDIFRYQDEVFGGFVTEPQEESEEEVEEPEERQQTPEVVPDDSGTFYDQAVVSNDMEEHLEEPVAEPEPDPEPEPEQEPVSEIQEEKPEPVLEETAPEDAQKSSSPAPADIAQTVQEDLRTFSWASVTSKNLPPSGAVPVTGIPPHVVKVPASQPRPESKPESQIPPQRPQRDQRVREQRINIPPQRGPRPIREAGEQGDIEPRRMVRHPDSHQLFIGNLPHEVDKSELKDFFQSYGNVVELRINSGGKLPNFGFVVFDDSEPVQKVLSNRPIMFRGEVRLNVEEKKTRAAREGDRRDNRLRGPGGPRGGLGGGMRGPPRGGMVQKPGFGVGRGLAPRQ
Technique: RNA Bind-n-Seq
Form: RNA
Matrix: in vitro
Concentration: 200 nM
Setting: whole 134-nt RNA, ends assumed
Together with: 150 mM KCl
Reference: input library
Direction: higher = stronger binding
Endpoint: log2 enrichment
Shared flanks, not repeated: GGGAGUUCUACAGUCCGACGAUC … UGGAAUUCUCGGGUGUCAAGG
UUGUGGAAAACCCACAUGCUCCUCAGAAAGAUGAUGCCCUGGUGAUCACACACUACAACCGGACCCGACAGCAGGAAGAGAUGCUGGGGC: 0.482
ACCAUGCAGGUGGGCAUCUUUGGGAAGUGGAAAAAGGGGGGGAUAGGGAGGGGGGUAACACUUUGGGAACAGGUGGUCCCAGGUCGUUUC: 0.895
UCCUGUGCUACACAUCGUAUGUACCGAAUCGGGUUUUUGGGUUUUUUUGGGUUUUUGGGAAAGUAUUAUGUUACGCCGUUCGGAUCUGCA: -0.257
CUGUGCUACACAUCGUAUGUACCGAAUCGGGAAAAAAAGGGGAAAAAAAGGGAAAAAAAGGAAAGUAUUAUGUUACGCCGUUCGGAUCUG: -0.804
AGUCCUGUGCUACACAUCGUAUGUACCGAAUCGGGGUUUUGGGUUUUGGGGUUUUGGAAAGUAUUAUGUUACGCCGUUCGGAUCUGCACU: -0.471
GCAGGAAGUAAAAACAAAUGGAAAUGCUUCGGAUAGUGGCAGGGGUGGGGGUUGCUAAGGAAAGGGUGGGAAAGGAGUGGGUAAAGAGUU: 0.856
CACAGACAACACGCACCCACACAGACACAGAGGGAAGGGGUUGGGAUGGGGACAGGGUGCACAGCAGGGCGGGGUAGGACCCCAUCCCCU: 2.04
CACAGACAACACGCACCCACACAGACACAGAGGGAAGGGGUUGGGAUGGGGACAGGGUGCACAGCAGGGCGGGGUAGGACCCCAGCCACU: 1.81
CCUGUGCUACACAUCGUAUGUACCGAAUCGGGAAAAAGGGUUUUUUUGGGAAAAAAAGGGAAAGUAUUAUGUUACGCCGUUCGGAUCUGC: -1.06
UUUCUAGGGAAGGUGCUUCUGGAAAAGUUGCUGAGGUCUUGUCCUAAGGUGAAUUCAGUAUAUGUUUUGGUGAGGCAGAAAGCUGGACAG: -1.77
ACCAUGCAGGUGGGCAUCUUUGGGAAGUGGGGCAAGGGAAAGAUAGGGAGGGGGGUAACACUUUGGGAACAGGUGGUCCCAGGUCGUUUC: 1.05
CAAGUCCUGUGCUACACAUCGUAUGUACCGAAUCGGGAGGGUUUGGGUUUUUGGGAAAGUAUUAUGUUACGCCGUUCGGAUCUGCACUUC: 0.349
AAGUCCUGUGCUACACAUCGUAUGUACCGAAUCGGCCCCGGCCCCGGGGCCCCGGGAAAGUAUUAUGUUACGCCGUUCGGAUCUGCACUU: -1.13
UCAAGUCCUGUGCUACACAUCGUAUGUACCGAAUCGGGGAGGGGUGGGGUGGGGAAAGUAUUAUGUUACGCCGUUCGGAUCUGCACUUCC: 1.73

Set 3
Target: Centromere-binding protein 1, full length, His-tagged (CBF1, Saccharomyces cerevisiae, UniProt P17106, residues 1-351)
Sequence of UniProt P17106 (whole entry, looked up): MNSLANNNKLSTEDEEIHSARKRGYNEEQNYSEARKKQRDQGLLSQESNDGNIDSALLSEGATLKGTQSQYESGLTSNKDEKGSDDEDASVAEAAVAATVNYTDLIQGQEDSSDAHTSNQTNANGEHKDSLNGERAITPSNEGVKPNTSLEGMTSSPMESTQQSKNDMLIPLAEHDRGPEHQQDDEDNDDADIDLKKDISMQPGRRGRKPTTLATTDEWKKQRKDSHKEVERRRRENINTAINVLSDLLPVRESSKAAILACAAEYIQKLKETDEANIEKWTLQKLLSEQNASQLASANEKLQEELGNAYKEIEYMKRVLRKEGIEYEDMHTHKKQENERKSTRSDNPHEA
Technique: competition protein-binding microarray
Form: double-stranded DNA, one strand shown
Matrix: in vitro
Concentration: 2 µM
Setting: whole 60-bp probe, lowest competitor level
Together with: Pho4 competitor, 0.05 µM
Direction: higher = stronger binding
Endpoint: fluorescence intensity
Shared flanks, not repeated: … GTCTTGATTCGCTTGACGCTGCTG
GTCTTGTCTCATTGTGGGGTGGGTGTCCCCACTTCA: 88.2 a.u.
CGGGGTTAAGTTTAGCACGTGTTTTGCTTGCAGCAG: 1690 a.u.
TTTGACCTCTTCGACCACGTGTGTTAGCTGGTCATT: 1210 a.u.
GCCATGTTTATTAAACTCGTGTATCCATAAGGACTC: 111 a.u.
GTCTTGTCTCATTGTCACAGGACTTTCCCCACTTCA: 113 a.u.
ACCCAGTTCACAAGCACCGTGAAGCTAGAGGTTTGA: 61.1 a.u.
CTTGGGCAAGCGAGTCACGTACTTTTTTTTTTTTTT: 574 a.u.
CGCCAGCAGTGAAACCTCGTGGGACAAAGCCGGTTC: 73.7 a.u.
AAATTACTAAGTTTTCACGTGATGTACCCCGTATGA: 3520 a.u.
AAATTACTAAGTTGTCACGGAACTTACCCCGTATGA: 83.1 a.u.
TGTCCAAGTCTGATCCATGTGTCTTGACCTATATGT: 78.9 a.u.
TTTCGAACGGAGCCGTGCGTGCTTTGAGTTTTTTGA: 61 a.u.
CTTTCCCGATCTTGGATTGTGGGTGTAGCACATTTG: 65.8 a.u.
CATACCCAACCTTTTCACGTGAAGTAAGATATTTGT: 815 a.u.
AATCCTGGGGTACCGGTCGTGCCGACGCTCGTATTC: 40.8 a.u.
CGCGCTGCCGGCCAAGACGTGATGGTGGTTGTCGAC: 68.3 a.u.
CTTTCCCGATCTTGGGAAGTGGGTGTAGCACATTTG: 64.3 a.u.
AGTCAAGTAAGGCGTCACCTGATTCTACTCCGGCCC: 686 a.u.
CGGGGTTAAGTTTGCGTCGTGGGTGGCTTGCAGCAG: 69.3 a.u.
CGTCCTAGCGATTGATTCGTGGGTGCCATGAGGAAG: 83.4 a.u.
TGAAGAGTACTTACTGATGTGATATTCGACAGGATC: 76.3 a.u.
TGCTATGTCCCTTCGACCGTGATGGAATGGGAGTGG: 74.2 a.u.

Set 4
Target: Sal-like protein 4, full length isoform A (SALL4, Homo sapiens, UniProt Q9UJQ4, residues 1-1053)
Sequence of UniProt Q9UJQ4 (whole entry, looked up): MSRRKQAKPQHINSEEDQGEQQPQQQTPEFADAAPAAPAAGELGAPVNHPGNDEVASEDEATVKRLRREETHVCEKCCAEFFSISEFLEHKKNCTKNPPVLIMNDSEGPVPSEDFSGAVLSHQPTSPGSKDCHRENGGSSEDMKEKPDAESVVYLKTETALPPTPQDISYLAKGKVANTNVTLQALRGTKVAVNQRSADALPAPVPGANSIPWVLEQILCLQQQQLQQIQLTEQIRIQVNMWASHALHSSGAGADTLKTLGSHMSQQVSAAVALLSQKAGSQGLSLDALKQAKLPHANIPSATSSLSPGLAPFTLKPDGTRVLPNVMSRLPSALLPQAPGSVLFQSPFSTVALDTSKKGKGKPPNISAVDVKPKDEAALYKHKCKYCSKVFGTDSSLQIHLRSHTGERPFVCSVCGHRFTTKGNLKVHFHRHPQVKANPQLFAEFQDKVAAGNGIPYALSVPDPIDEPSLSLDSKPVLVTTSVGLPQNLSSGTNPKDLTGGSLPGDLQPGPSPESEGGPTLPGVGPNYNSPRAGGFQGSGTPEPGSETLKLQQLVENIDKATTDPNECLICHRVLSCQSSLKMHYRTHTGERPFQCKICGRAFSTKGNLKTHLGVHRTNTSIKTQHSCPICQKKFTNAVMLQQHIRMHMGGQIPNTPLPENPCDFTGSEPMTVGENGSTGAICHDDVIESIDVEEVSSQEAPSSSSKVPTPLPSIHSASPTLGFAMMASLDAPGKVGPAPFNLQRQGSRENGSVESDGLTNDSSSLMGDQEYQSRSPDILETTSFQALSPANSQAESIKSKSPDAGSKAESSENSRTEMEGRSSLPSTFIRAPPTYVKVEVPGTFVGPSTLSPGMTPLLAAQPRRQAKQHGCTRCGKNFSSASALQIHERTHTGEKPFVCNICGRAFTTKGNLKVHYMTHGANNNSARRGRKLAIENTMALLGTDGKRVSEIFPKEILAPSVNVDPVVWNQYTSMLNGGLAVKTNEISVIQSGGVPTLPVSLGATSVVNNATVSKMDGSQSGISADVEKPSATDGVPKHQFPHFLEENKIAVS
Technique: universal PBM
Form: double-stranded DNA, one strand shown
Matrix: in vitro
Concentration: 600 nM
Setting: 8-mer, flanks averaged, mean of replicates
Direction: higher = stronger binding
Endpoint: E-score
ATGGTATG: 0.148
CGTATTGA: 0.124
AGCAGCTG: -0.0391
CAACAAGC: 0.0139
CTCTCTCC: -0.239
GCACAAAA: 0.119
CCAACCGA: -0.0486
AAAATGCA: 0.165
ATACCTCA: 0.149
TAACCTAA: 0.238
AAGACCCG: -0.152
AACACTTA: 0.234
CCTGTGCC: -0.229
AATATAGG: 0.332
CCTTTCTA: 0.0954
AGAGCCGG: -0.372
CCAATGCC: -0.189
AGAGTCCA: -0.0636
ACGTGTTG: 0.134
CTAACTTA: 0.255
AGGAATGG: -0.133
ACACTACC: -0.172
CCATCGCA: -0.116
AGCAGTTC: -0.0056
TACCGGCA: -0.0889

Set 5
Target: Histone acetyltransferase KAT6A, winged helix 2, GST fusion (KAT6A, Homo sapiens, UniProt Q92794, residues 85-181)
Technique: protein binding microarray
Form: double-stranded DNA, one strand shown
Matrix: in vitro
Concentration: not given
Setting: 8-mer, flanks averaged, mean of 2 arrays, mostly near background
Reference: not given
Direction: higher = stronger binding
Endpoint: E-score
Residues (chain): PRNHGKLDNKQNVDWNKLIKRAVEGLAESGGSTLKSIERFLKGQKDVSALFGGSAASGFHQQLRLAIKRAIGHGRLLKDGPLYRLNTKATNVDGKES
CTTGGTGC: -0.0759
ACGTCCTG: -0.188
GTCTTACA: -0.21
ACTGCCGA: 0.163
ATTACCGA: -0.101
TGTAGGAA: -0.101
AGTTTAAC: -0.151
CTGCACCA: 0.027
AACATGCC: -0.0669
AGGATAAG: -0.0318
CTCACATC: 0.0482
ACATAGAT: 0.0377
AGGCCGTA: 0.233
AAAGTTGT: 0.072
CTTTTATA: 0.00652
CCGTTGAG: 0.0469
CTACCCCC: -0.213
GAGGGAGA: -0.109
GAGCTCCC: -0.0435
CCGTGGGA: 0.104
AACCCGGT: -0.115

For quick reference, copied from above (set 4):
AAAATGCA: 0.165
AGGAATGG: -0.133
GCACAAAA: 0.119
AGAGCCGG: -0.372
AGCAGCTG: -0.0391
AATATAGG: 0.332
ATACCTCA: 0.149
CTAACTTA: 0.255
